Results of several laboratories.
Protocols differ between the studies behind these lines.
B1: PPP2R5A E106K (Homo sapiens, UniProt Q15172-1); chain MSSSSPPAGAASAAISASEKVDGFTRKSVRKAQRQKRSQGSSQFRSQGSQAELHPLPQLKDATSNEQQELFCQKLQQCCILFDFMDSVSDLKSKEIKRATLNELVKYVSTNRGVIVESAYSDIVKMISANIFRTLPPSDNPDFDPEEDEPTLEASWPHIQLVYEFFLRFLESPDFQPSIAKRYIDQKFVQQLLELFDSEDPRERDFLKTVLHRIYGKFLGLRAFIRKQINNIFLRFIYETEHFNGVAELLEILGSIINGFALPLKAEHKQFLMKVLIPMHTAKGLALFHAQLAYCVVQFLEKDTTLTEPVIRGLLKFWPKTCSQKEVMFLGEIEEILDVIEPTQFKKIEEPLFKQISKCVSSSHFQVAERALYFWNNEYILSLIEENIDKILPIMFASLYKISKEHWNPTIVALVYNVLKTLMEMNGKLFDDLTSSYKAERQREKKKELEREELWKKLEELKLKKALEKQNSAYNMHSILSNTSAE
B2: abpA 1-195 (Streptococcus gordonii, UniProt A8AZZ3); sequence looked up; chain MKKVLLSSVVALTLFAAAAPVFSADEATDAARNNDGAYYLQTQFTNADKVNEYLAQHDGEIRAEAAADPAVVAAKAALDAVEGGSHNYGEVKAAYEAAFNNAFNAVRNKYVQQFQATYNNATEQEGKTYIQGETPEQANARYLKRVGAANNQNPAAEDKGATTPASKEEAKKSEAAAKNAGKAAGKALPKTSAVK
B3: PPP2R5A E378R (Homo sapiens, UniProt Q15172-1); chain MSSSSPPAGAASAAISASEKVDGFTRKSVRKAQRQKRSQGSSQFRSQGSQAELHPLPQLKDATSNEQQELFCQKLQQCCILFDFMDSVSDLKSKEIKRATLNELVEYVSTNRGVIVESAYSDIVKMISANIFRTLPPSDNPDFDPEEDEPTLEASWPHIQLVYEFFLRFLESPDFQPSIAKRYIDQKFVQQLLELFDSEDPRERDFLKTVLHRIYGKFLGLRAFIRKQINNIFLRFIYETEHFNGVAELLEILGSIINGFALPLKAEHKQFLMKVLIPMHTAKGLALFHAQLAYCVVQFLEKDTTLTEPVIRGLLKFWPKTCSQKEVMFLGEIEEILDVIEPTQFKKIEEPLFKQISKCVSSSHFQVAERALYFWNNRYILSLIEENIDKILPIMFASLYKISKEHWNPTIVALVYNVLKTLMEMNGKLFDDLTSSYKAERQREKKKELEREELWKKLEELKLKKALEKQNSAYNMHSILSNTSAE
UniProt P0DUB6, sequence (whole entry, unmodified, looked up): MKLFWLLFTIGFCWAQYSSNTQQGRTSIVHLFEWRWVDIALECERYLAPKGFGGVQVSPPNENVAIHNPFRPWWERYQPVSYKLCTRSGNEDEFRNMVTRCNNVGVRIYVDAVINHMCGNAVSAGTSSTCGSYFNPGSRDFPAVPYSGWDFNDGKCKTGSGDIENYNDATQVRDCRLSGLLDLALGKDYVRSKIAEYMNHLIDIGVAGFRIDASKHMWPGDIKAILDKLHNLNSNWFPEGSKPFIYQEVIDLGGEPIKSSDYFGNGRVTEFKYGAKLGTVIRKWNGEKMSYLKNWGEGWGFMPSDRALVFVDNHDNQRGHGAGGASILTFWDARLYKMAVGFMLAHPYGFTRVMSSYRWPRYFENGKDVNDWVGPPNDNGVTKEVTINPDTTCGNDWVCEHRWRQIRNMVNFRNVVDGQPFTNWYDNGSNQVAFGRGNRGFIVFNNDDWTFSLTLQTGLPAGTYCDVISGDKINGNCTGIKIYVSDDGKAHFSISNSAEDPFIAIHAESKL

Molecule | target or system | test | system | conditions | endpoint | result
B1 (PPP2R5A E106K) | Vif/CBFB/ELOB/ELOC R127E (HIV-1/Homo sapiens) | pull-down |  |  | binding | binds
COc1ncncc1-c1cn([C@@H]2O[C@](F)(CO[P@@](=O)(N[C@@H](C)C(=O)OC(C)C)Oc3ccccc3)[C@@H](OC(=O)C(C)C)[C@H]2OC(=O)C(C)C)cn1 | Zaire ebolavirus | viral replication, reporter virus | Huh-7 | 72 h | IC50 | 11.5 µM
YMLDLQPEV | HPV16 E7-specific T-cell line | ELISA | peptide, supernatant | concentration not given, 24 h, together with: peptide-pulsed autologous B cells | IFN-γ release | 230 pg/mL
B2 (abpA 1-195) | AMY1A mature W134A/W203A/Y276A/W284A/W316A/W388A (Homo sapiens, UniProt P0DUB6) | SPR |  | apparent | Kd | 14.9 µM
ALTPVVVTL | HLA class I histocompatibility antigen, A alpha chain, allele A*02:01 (Homo sapiens, UniProt P04439) |  | peptide | 11 µM | dissociation half-life | > 8 h
B3 (PPP2R5A E378R) | Vif/CBFB/ELOB/ELOC R15E (HIV-1/Homo sapiens) | pull-down |  |  | binding | binds
TLHEYMLDV | HPV16 E7-specific T-cell line | ELISA | peptide, supernatant | concentration not given, 24 h, together with: peptide-pulsed autologous B cells | IFN-γ release | 95.3 pg/mL
COc1ncc(-c2cn([C@@H]3O[C@](F)(COC(=O)C(C)C)[C@@H](OC(=O)C(C)C)[C@H]3OC(=O)C(C)C)cn2)c(N)n1 | Zaire ebolavirus | viral replication, reporter virus | Huh-7 | 72 h | IC50 | 85.3 µM
COc1ccc2c(c1)[nH]c1c(C)nccc12 | MERS-CoV spike VSV pseudovirus | pseudovirus entry |  | 10 µM | inhibition | 43%
